Experimental data of several laboratories.
Lines come from different studies, so protocols differ. Values joined by “and” are separate records of one study, mostly repeats; a detail may differ. ± marks the error that the study gave.
T1: RNA, 2'-deoxy at 37-40 (Fusobacterium nucleatum); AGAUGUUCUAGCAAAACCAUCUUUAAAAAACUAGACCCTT
Chain of UniProt P22736 (whole entry, looked up): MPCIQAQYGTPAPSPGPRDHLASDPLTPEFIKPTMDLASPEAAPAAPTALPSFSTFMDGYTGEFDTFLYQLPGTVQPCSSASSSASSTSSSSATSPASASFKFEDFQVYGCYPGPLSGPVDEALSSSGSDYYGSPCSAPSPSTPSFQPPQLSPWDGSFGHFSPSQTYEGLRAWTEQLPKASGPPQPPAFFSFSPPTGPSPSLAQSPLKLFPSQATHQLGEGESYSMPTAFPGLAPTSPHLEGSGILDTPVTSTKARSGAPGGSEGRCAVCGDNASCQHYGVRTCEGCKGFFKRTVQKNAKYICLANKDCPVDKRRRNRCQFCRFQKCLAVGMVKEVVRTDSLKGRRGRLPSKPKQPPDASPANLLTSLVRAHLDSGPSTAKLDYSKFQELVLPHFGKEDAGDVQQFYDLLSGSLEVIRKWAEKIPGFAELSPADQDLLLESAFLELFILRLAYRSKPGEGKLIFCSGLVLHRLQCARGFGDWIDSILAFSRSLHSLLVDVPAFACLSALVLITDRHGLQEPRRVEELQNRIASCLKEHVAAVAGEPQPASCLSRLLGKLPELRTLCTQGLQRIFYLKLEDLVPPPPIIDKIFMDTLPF
Chain of UniProt Q96NY8 (whole entry, looked up): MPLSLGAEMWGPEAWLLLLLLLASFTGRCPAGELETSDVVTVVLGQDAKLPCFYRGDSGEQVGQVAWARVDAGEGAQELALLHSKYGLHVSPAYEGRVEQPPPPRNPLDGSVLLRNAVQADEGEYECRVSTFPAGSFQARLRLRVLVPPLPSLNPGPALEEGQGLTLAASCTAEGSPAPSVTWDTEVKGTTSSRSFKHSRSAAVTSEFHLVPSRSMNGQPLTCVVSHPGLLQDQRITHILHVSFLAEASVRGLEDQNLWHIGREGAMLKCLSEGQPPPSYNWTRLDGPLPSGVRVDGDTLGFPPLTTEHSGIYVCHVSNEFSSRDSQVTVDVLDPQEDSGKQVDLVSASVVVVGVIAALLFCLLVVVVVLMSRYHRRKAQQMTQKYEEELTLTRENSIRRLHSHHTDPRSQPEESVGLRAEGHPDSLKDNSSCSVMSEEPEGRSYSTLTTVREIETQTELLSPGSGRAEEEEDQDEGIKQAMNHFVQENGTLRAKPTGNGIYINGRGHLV
Chain of UniProt Q14524 (whole entry, looked up): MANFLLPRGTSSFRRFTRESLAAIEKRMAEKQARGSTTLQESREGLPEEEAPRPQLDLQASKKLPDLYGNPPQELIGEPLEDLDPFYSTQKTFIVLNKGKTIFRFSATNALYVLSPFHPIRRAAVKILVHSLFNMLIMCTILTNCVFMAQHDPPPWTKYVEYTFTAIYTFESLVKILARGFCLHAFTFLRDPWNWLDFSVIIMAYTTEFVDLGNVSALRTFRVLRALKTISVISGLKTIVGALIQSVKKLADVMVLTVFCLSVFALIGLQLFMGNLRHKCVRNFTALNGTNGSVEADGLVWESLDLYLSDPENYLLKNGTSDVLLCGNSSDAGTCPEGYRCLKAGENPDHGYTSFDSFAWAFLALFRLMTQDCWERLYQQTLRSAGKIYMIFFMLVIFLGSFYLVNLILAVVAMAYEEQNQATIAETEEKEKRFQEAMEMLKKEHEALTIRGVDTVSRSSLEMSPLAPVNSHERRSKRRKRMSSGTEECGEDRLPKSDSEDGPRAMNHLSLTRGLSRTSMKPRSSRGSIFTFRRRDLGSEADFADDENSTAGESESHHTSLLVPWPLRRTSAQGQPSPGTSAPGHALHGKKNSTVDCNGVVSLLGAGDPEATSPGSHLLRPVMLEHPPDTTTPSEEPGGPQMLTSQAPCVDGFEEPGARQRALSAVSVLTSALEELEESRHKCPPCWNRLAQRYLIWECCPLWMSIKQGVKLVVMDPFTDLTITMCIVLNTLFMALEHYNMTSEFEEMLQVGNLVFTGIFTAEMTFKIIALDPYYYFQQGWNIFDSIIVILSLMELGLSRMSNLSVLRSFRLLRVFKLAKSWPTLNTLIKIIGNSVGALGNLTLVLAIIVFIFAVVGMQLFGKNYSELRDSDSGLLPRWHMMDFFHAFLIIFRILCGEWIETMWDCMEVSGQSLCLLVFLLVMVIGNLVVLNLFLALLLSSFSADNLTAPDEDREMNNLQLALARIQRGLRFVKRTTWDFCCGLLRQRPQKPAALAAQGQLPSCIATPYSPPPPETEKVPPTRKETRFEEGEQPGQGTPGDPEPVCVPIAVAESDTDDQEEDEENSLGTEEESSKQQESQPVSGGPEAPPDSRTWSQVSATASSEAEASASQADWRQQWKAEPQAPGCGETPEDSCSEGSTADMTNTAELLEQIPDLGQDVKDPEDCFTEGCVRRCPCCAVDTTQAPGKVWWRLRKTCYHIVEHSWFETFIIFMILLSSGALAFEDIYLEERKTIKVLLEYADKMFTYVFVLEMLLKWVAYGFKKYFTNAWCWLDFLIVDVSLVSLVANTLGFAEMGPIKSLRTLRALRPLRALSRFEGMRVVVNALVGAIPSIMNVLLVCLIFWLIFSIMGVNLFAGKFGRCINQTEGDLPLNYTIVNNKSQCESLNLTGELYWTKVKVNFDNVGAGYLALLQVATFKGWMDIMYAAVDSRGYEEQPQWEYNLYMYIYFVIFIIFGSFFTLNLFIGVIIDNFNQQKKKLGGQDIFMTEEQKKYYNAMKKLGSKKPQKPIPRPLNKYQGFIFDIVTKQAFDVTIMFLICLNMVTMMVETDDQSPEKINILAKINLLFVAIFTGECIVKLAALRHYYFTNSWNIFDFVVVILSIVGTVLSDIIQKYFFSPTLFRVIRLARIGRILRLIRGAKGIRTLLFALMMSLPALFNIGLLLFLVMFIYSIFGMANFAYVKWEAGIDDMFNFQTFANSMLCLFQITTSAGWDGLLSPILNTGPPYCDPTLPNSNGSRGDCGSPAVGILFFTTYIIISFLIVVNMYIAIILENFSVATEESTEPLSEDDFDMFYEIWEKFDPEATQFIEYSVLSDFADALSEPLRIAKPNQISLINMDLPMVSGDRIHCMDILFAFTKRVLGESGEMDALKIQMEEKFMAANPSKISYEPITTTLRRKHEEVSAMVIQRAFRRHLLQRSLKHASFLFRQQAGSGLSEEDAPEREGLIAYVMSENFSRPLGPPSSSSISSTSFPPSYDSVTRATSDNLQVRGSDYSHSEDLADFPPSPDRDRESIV
Chain of UniProt Q9UBL9 (whole entry, looked up): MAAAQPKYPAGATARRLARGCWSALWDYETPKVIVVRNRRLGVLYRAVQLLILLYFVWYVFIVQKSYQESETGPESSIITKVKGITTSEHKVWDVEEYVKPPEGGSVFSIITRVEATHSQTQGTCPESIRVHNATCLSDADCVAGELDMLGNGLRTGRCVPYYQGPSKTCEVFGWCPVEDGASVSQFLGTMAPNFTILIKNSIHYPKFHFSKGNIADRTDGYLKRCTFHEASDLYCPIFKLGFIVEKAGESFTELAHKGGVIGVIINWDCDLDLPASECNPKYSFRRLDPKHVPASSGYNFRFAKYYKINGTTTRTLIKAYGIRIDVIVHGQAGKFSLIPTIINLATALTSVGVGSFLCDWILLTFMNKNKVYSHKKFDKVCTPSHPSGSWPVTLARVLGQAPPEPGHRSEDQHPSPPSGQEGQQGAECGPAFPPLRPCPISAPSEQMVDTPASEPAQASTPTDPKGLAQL
Chain of UniProt Q5AHG6 (whole entry, looked up): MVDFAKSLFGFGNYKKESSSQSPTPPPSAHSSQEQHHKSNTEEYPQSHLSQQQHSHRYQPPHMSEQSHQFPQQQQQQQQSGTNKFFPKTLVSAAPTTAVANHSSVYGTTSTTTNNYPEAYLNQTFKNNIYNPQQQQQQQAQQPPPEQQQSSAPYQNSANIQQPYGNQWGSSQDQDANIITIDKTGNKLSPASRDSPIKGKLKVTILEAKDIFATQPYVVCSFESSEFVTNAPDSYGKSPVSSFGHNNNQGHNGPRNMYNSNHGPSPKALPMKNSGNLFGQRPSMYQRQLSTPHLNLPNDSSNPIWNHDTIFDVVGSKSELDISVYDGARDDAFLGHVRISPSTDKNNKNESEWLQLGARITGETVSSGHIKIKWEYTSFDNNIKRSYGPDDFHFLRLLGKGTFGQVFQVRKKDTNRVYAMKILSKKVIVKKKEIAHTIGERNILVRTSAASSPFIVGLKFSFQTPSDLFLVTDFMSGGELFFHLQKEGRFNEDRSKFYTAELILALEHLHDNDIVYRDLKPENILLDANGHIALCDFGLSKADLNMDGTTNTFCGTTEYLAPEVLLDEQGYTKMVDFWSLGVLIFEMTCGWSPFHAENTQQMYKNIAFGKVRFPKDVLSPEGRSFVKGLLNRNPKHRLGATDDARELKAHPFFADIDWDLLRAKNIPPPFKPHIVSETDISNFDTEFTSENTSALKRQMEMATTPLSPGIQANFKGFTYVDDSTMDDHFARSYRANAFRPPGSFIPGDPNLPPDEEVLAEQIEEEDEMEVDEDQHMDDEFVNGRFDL
Chain of UniProt P35348 (whole entry, looked up): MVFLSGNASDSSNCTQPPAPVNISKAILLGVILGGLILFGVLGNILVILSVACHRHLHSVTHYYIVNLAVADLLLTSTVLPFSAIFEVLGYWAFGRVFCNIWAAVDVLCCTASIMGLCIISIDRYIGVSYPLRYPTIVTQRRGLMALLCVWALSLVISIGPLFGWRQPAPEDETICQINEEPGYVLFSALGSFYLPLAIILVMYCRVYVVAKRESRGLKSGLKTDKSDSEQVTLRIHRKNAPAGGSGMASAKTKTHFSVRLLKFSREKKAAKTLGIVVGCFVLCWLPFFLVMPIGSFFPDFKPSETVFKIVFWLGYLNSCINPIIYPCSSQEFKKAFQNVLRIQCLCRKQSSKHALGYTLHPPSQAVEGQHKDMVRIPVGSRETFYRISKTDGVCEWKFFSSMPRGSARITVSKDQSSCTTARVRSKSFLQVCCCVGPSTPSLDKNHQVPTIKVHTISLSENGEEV

Compound	target	test	system	conditions	how to read	quantity	value
NCCCS(=O)(=O)O	SLC6A6 (Homo sapiens, UniProt P31641, Y138A)	binding, microscale thermophoresis	–	500 µM, room temperature, added: 50 nM labelled protein	higher = more binding	normalised MST signal	0.891
Cl.[2H]C([2H])([2H])CC(=O)c1cnc(NC(=O)C2CC2)cc1Nc1cccc(-c2ncn(C([2H])([2H])[2H])n2)c1OC	TYK2 (Homo sapiens, UniProt P29597)	IFNα-induced STAT1 phosphorylation, flow cytometry	human, whole blood T cells	above 10 mg once daily, added: IFN-alpha	–	time to maximal inhibition	2 to 4 h
CCN1CCN(c2cc(N3CCN(CC)CC3)nc(NCCNc3ccnc4cc(Cl)ccc34)n2)CC1	Nuclear receptor subfamily 4 group A member 1 (NR4A1, Homo sapiens, UniProt P22736)	reporter gene, NBRE reporter full-length	–	20 µM	relative to: vehicle	activation	1.43 fold
CCCC[C@@H]1NC(=O)[C@H](Cc2ccc(O)cc2)NC(=O)[C@@H]2CCCN2C(=O)[C@H](CC(=O)O)NC(=O)[C@H](C)NC(=O)[C@H](Cc2ccccc2)NC(=O)[C@@H]2CSCCC(=O)N3CN(CN(C3)C(=O)CCSC[C@@H](C(=O)N[C@@H](C)C(N)=O)NC1=O)C(=O)CCSC[C@H](NC(C)=O)C(=O)N[C@@H](CC(C)(C)C)C(=O)N1CCC[C@H]1C(=O)N[C@@H](CCC(=O)O)C(=O)N[C@H](CCCCNC(=O)CCc1cn(CCOCCOCCOCCOCCOCCC(=O)N[C@H]3CSCCC(=O)N4CN5CN(C4)C(=O)CCSC[C@H](NC(=O)CNC(=O)[C@H](Cc4ccccc4)NC(=O)[C@@H]4CCCN4C3=O)C(=O)N[C@@H](CCSC)C(=O)N[C@@H](CCCCNC(=N)N)C(=O)N[C@@H](CC(=O)O)C(=O)N[C@@H](Cc3c[nH]c4ccccc34)C(=O)N[C@@H](CO)C(=O)N[C@@H]([C@@H](C)O)C(=O)N3CCC[C@H]3C(=O)N3C[C@H](O)C[C@H]3C(=O)N[C@@H](Cc3c[nH]c4ccccc34)C(=O)N[C@H](C(N)=O)CSCCC5=O)nn1)C(=O)N1CCC[C@H]1C(=O)N[C@@H](Cc1ccc(O)cc1)C(=O)N2	Tumor necrosis factor receptor superfamily member 9/Nectin-4 (Homo sapiens, UniProt Q07011+Q96NY8)	reporter gene, agonist	HT-1376 coculture with reporter cells	–	relative to: background	Emax	33 fold
O=C(Nc1cccc2c(=O)cc(-c3nnn[nH]3)oc12)c1ccc(OCCCCc2ccccc2)cc1	Volume-regulated anion channel subunit LRRC8C, part LRRC8A IL1 chimera (LRRC8C, Homo sapiens, UniProt Q8TDW0, L136K)	ion current, inhibitor, whole-cell patch clamp	HCT LRRC8-/- cells	0.3 µM, -100 mV	–	inhibition	49.6% and 25.5% and 42.9% and 30.9% and 26.7%
CCCC(CCC)c1nc2c(Nc3ccc(C#CCCCCCCCCN)cc3)nc3ccccc3c2[nH]1	ADRA1A (Homo sapiens, UniProt P35348)	PDSP screening	–	–	–	off-target affinity	inactive
NCc1c[nH]c2nc(N)[nH]c(=O)c12	T1, RNA, 2'-deoxy at 37-40 (Fusobacterium nucleatum)	MST	–	apparent	–	Kd	360 nM
C[C@@H](O)[C@H]1C(=O)N2C(C(=O)O)=C(S[C@@H]3CN[C@H](C(=O)N(C)C)C3)[C@H](C)[C@H]12	beta-lactamase OXA-1152	enzyme activity, substrate, HPLC hydrolysis	–	–	–	Km	0.0232 µM
Cc1ccc(S(=O)(=O)Oc2ccccc2NC(=O)c2ccc3ncccc3c2)cc1	P2X purinoceptor 2 (P2RX2, Homo sapiens, UniProt Q9UBL9)	calcium mobilization	MCF7 stably transfected	100 µM, added: ATP 100 µM	–	fluorescence increase	61.6 ± 1.11%
O=C1CCC(N2Cc3cc(-c4cnc5ccccc5c4)ccc3C2=O)C(=O)N1 (stereo not drawn)	Cereblon/Casein kinase I alpha (CSNK1A1/CRBN, Homo sapiens, UniProt P48729+Q96SW2)	degrader, Western blot time-course	MOLT-4	1 µM	–	degradation time	< 3 h
Oc1ccccc1-c1n[nH]cc1-c1ccnc2ccccc12	Serine/threonine-protein kinase SCH9 (SCH9, Candida albicans, UniProt Q5AHG6)	kinase binding, MIB/MS competition	Candida albicans lysate	10 µM	relative to: DMSO, negative = stronger binding	log2 fold change	0.12
Nc1nnc(-c2cccc(Cl)c2Cl)c(N)n1	SCN5A (Homo sapiens, UniProt Q14524)	sodium current	–	25 µM, -120 mV	–	fast tau off	58%

Repeated from above:
Compound	target	test	system	conditions	how to read	quantity	value
NCc1c[nH]c2nc(N)[nH]c(=O)c12	T1, RNA, 2'-deoxy at 37-40 (Fusobacterium nucleatum)	MST	–	apparent	–	Kd	360 nM
C[C@@H](O)[C@H]1C(=O)N2C(C(=O)O)=C(S[C@@H]3CN[C@H](C(=O)N(C)C)C3)[C@H](C)[C@H]12	beta-lactamase OXA-1152	enzyme activity, substrate, HPLC hydrolysis	–	–	–	Km	0.0232 µM
